Published values pooled from the literature.
Parts stem from different laboratories: compare values within a part only.

Set 1 — technique: protein-binding microarray; form: double-stranded DNA, one strand shown; sample: in vitro; tested at: 2200 nM top; notes: 60-bp whole probe; added: salmon DNA 0.4 mg/ml; relative to: random background probes; reading: higher = stronger binding; all sequences stand within: GCCTAGCAC … GTCTTGATTCGCTTGACGCTGCTG
Target: Interferon regulatory factor 7, full length, phosphomimetic (IRF7, Homo sapiens, UniProt Q92985, residues 1-503, S471D/S472D/S475D/S476D/S477D/S483D/S484D/S487D)
Residues (chain): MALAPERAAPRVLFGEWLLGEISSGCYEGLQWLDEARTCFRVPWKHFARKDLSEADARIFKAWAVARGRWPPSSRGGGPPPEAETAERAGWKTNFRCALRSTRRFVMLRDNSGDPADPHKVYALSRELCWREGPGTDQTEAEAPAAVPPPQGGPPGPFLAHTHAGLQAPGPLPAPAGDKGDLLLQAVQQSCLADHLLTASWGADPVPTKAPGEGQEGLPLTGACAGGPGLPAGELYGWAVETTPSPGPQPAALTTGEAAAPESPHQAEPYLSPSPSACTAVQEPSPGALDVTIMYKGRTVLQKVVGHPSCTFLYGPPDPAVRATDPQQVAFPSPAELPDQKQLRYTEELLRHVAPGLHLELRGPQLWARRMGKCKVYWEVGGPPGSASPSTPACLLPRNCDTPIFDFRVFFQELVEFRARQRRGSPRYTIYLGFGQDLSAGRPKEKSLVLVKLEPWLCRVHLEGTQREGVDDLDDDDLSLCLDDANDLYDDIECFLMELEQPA
Under “fitted relative affinity”, `GACGAGCTGGGGACTGGAGACGTGCTA` is recorded as -0.742 z-score.
`TCATTTATCAATCATTTTACTGTGCTA` — result for “fitted relative affinity”: 1.21 z-score.
For `GATGGTATCGGGTATCGGGACGTGCTA`, “fitted relative affinity” read -0.0904 z-score.
`GACGGTCTCCTTTTACTGACGTGCTAG`: “fitted relative affinity” 1.41 z-score.
`GGTCTTCTGGGCTGTTTGGTTGTGCTA`: “fitted relative affinity” -0.188 z-score.
For `TTAGGTTCCCTATTCCTTTAGTGCTAG`, “fitted relative affinity” read 1.83 z-score.

Set 2 — target: Sox, HMG box (Pigoraptor chileana); technique: Spec-seq; form: double-stranded DNA, one strand shown; sample: in vitro; tested at: not given; notes: whole probe, mean of replicates; relative to: not given; reading: lower = stronger binding
All sequences stand within: GAGTCGTCTCGTCAGCACCAT … CCGTAGAGCACTCAGGTC
Residues (chain): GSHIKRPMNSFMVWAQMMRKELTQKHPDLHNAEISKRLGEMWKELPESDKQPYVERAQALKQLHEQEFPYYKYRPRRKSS
Under “relative binding energy”, `GCTA` is recorded as 0.539 ln ratio.
Under “relative binding energy”, `AGGT` is recorded as -0.261 ln ratio.
For `GCGT`, “relative binding energy” read 0.693 ln ratio.
Under “relative binding energy”, `TCTT` is recorded as -1.77 ln ratio.
`AATA`: “relative binding energy” -1.5 ln ratio.
Under “relative binding energy”, `ACGT` is recorded as 0.254 ln ratio.
`GGAC` — result for “relative binding energy”: 0.421 ln ratio.

Set 3 — technique: competition protein-binding microarray; form: double-stranded DNA, one strand shown; sample: in vitro; tested at: 2 µM; added: Pho4 competitor, 0.05 µM; reading: higher = stronger binding
Target: Centromere-binding protein 1, full length, His-tagged (CBF1, Saccharomyces cerevisiae, UniProt P17106, residues 1-351)
Chain of UniProt P17106 (whole entry, looked up): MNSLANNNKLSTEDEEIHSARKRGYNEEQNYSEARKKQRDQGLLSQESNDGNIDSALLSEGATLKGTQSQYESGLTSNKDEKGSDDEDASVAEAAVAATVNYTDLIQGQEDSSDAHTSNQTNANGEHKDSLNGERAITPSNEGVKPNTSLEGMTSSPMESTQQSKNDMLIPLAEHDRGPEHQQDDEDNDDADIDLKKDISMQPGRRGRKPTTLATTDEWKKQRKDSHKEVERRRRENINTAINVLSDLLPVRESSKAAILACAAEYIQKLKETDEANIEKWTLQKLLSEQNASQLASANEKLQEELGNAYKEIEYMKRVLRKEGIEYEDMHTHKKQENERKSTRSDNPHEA
Notes: whole 60-bp probe, lowest competitor level
The fluorescence intensity of `GCTCTAGTAATTGTCTACGTGCCGAATCGTTTCTCTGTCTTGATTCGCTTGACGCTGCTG` is reported as 139 a.u.
`CTAACGAAGGTTTGACGAGTGGGTGACAAGCCAAGTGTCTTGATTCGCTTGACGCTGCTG` gave a fluorescence intensity of 55.2 a.u.
The fluorescence intensity of `TGCGCAACAACTTTTCACGTGTGTTTATGTCTAGAAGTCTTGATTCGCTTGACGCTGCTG` is reported as 841 a.u.
With `CTTTCCCGATCTTGAGGAGTGGGTGTAGCACATTTGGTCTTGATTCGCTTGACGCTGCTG` the fluorescence intensity was 71.4 a.u.
For `TGGAATGCATAAAAGAATGTGATGAAGTGTTTCCAAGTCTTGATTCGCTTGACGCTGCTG`, the fluorescence intensity was 86.7 a.u.
`ATAGCCGAAAGAGGAAATGTGATATGCCCACCTGTGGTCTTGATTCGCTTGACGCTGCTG` has a fluorescence intensity of 103 a.u.
With `TTGAAATGGCCAATCACCGTGCCAGGCTTGCAAGTCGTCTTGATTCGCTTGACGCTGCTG` the fluorescence intensity was 81.4 a.u.

Mixed results
The fold induction of `PhoQ, residues 284 288 289 292 302 303 AAQSYM` is reported as 11.5 (PhoP, residues 12 14 15 18 19 SQCLL (Escherichia coli, UniProt P23836); Sort-seq, item: YFP reporter; E. coli; PhoQ-PhoP variant library, added: 10 µM Mg2+; relative to: high Mg2+ state, higher = stronger signaling).

For quick reference, copied from above (set 2):
Under “relative binding energy”, `AGGT` is recorded as -0.261 ln ratio.
For `GCGT`, “relative binding energy” read 0.693 ln ratio.
Under “relative binding energy”, `TCTT` is recorded as -1.77 ln ratio.
